Measurements of several laboratories.
Parts stem from different laboratories: compare values within a part only. “And” joins repeats or separate records; there may be more than shown.
UniProt P00519, sequence (whole entry, unmodified, looked up): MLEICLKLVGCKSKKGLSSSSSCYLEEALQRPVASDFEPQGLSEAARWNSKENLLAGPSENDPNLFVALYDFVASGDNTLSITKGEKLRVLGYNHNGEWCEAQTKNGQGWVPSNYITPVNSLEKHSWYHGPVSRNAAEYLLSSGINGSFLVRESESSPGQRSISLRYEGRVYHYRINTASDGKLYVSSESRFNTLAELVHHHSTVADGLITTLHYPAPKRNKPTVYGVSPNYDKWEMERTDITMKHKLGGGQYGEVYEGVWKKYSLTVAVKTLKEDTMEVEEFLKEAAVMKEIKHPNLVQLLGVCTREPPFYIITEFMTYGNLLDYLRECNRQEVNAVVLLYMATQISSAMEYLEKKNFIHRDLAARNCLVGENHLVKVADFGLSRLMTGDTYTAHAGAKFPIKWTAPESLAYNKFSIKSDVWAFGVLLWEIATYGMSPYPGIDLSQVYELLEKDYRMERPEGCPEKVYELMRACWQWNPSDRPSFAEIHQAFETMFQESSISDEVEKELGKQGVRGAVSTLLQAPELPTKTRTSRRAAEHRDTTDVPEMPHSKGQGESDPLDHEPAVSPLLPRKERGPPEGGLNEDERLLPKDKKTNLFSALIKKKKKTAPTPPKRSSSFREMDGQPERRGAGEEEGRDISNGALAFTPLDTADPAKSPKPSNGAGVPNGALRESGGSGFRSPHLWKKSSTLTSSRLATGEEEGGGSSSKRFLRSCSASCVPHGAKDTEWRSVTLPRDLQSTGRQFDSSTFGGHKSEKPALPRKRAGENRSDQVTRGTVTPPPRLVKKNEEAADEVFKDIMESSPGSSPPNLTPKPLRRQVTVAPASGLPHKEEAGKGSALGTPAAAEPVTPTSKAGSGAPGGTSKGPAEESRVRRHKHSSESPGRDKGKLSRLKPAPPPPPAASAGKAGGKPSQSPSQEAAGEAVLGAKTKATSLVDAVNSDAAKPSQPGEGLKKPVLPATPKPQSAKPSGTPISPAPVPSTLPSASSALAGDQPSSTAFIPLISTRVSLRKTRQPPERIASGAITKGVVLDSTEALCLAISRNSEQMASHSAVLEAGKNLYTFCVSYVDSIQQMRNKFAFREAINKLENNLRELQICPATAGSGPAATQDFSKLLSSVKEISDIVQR
UniProt P31751, sequence (whole entry, looked up): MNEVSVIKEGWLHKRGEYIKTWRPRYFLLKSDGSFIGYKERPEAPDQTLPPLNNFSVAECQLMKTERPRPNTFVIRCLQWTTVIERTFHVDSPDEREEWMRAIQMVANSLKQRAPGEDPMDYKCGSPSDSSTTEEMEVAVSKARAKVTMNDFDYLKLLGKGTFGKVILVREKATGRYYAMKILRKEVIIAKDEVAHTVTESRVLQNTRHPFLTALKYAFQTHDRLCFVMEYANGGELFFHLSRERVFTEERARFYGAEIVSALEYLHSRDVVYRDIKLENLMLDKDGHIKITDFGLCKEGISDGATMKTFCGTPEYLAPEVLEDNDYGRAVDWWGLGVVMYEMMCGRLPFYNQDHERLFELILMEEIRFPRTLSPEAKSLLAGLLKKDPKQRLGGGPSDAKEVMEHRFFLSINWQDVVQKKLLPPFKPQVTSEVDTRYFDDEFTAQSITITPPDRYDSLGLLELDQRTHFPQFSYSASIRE
UniProt P42336, sequence (whole entry, unmodified, looked up): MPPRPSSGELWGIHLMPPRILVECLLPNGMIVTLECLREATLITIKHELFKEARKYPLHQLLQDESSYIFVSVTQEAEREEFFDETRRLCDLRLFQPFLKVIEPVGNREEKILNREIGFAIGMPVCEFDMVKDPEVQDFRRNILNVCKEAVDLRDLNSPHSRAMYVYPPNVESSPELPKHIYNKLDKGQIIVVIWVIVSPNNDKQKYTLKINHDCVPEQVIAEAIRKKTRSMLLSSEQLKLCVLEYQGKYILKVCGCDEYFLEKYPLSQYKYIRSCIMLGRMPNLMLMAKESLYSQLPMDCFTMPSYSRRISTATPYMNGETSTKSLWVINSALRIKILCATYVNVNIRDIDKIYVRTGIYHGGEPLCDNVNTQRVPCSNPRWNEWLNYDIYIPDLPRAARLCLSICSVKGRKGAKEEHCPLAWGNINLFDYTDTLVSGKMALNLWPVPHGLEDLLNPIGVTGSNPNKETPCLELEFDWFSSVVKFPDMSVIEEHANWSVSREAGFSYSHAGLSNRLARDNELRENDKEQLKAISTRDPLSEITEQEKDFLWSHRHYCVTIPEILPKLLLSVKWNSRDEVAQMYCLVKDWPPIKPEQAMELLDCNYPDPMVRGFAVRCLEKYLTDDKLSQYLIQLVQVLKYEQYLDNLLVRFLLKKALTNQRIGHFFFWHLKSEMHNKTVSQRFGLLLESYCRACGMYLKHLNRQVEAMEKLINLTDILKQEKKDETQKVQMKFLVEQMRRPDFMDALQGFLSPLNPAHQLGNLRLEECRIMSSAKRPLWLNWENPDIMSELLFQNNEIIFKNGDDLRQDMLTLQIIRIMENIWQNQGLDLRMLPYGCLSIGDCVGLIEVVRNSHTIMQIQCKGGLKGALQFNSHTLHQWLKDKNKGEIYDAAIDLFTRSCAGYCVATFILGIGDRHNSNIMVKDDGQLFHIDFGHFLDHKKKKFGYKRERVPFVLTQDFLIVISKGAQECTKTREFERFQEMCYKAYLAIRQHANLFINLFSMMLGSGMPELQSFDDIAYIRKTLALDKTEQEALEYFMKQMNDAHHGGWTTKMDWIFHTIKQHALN
UniProt P30291, sequence (whole entry, looked up): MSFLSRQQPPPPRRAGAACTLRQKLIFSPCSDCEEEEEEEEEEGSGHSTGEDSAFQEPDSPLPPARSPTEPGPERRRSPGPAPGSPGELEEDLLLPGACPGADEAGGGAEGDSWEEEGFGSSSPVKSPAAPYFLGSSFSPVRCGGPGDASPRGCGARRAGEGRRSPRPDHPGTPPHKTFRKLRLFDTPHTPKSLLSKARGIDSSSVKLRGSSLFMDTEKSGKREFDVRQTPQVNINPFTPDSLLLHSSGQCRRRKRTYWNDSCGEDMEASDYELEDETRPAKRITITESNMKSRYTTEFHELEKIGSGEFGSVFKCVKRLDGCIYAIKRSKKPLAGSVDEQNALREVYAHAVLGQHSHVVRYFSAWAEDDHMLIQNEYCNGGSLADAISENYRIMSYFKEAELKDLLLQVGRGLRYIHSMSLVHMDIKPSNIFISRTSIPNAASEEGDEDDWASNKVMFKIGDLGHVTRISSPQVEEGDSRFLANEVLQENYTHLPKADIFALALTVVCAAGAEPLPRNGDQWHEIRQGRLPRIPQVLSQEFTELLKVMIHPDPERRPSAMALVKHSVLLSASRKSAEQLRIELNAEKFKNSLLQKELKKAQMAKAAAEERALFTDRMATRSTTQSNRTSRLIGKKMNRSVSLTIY
UniProt Q16513, sequence (whole entry, looked up): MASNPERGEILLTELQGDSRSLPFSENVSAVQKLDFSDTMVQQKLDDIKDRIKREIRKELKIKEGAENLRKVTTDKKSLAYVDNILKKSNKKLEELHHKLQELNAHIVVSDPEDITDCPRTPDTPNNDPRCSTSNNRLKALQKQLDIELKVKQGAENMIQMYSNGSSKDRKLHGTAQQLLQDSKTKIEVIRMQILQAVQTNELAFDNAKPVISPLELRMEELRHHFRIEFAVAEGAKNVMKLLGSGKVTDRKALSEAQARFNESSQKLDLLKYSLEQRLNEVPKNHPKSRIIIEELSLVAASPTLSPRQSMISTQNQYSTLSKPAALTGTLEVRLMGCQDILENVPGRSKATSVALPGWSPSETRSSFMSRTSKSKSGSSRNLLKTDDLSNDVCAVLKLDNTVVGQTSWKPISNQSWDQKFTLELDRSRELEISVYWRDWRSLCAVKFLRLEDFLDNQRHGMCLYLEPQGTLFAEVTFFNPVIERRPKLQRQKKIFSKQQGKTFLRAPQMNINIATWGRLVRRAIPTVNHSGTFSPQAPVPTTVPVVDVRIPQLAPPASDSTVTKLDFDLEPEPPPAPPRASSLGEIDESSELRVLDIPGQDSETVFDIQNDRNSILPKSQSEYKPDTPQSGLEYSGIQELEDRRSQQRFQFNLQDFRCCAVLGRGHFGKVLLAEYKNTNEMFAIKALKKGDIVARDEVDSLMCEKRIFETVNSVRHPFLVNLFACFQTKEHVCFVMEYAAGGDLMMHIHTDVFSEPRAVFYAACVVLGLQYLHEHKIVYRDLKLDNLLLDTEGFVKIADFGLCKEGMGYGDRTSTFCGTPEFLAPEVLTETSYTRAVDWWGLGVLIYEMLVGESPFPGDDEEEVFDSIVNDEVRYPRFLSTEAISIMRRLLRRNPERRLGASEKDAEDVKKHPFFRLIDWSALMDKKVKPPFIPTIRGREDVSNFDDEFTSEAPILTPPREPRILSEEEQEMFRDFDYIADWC

Series 1 — concentration: 1 µM
Structure (SMILES): Cc1ccc(NC(=O)c2ccnc(C(F)(F)F)c2)cc1-c1cc(OCCO)nc(N2CCOCC2)c1
PKN2 (Homo sapiens, UniProt Q16513); competitive binding panel; baseline: vehicle — remaining binding: 89%.
For EPHB1 (Homo sapiens, UniProt P54762); competitive binding panel; baseline: vehicle: remaining binding read 91%.
It gave 100% for remaining binding (SGK3 (Homo sapiens, UniProt Q96BR1); competitive binding panel; baseline: vehicle).
ABL1 (Homo sapiens, UniProt P00519, T315I); competitive binding scan — remaining binding: 77% and 100%.
TBK1 (Homo sapiens, UniProt Q9UHD2); competitive binding panel; baseline: vehicle — remaining binding: 78%.
For BMPR2 (Homo sapiens, UniProt Q13873); competitive binding panel; baseline: vehicle: remaining binding read 100%.
It gave 100% for remaining binding (PRPF4B (Homo sapiens, UniProt Q13523); competitive binding panel, refers to: PRP4; baseline: vehicle).
For TLK1 (Homo sapiens, UniProt Q9UKI8); competitive binding panel; baseline: vehicle: remaining binding read 87%.
It gave 82% for remaining binding (TRPM6 (Homo sapiens, UniProt Q9BX84); competitive binding panel; baseline: vehicle).
It gave 99% for remaining binding (GRK4 (Homo sapiens, UniProt P32298); competitive binding panel; baseline: vehicle).
PIK3CA (Homo sapiens, UniProt P42336, M1043I); competitive binding panel; baseline: vehicle — remaining binding: 94%.
CDK7 (Homo sapiens, UniProt P50613); competitive binding panel; baseline: vehicle — remaining binding: 98%.
The remaining binding was 93% (HIPK1 (Homo sapiens, UniProt Q86Z02); competitive binding panel; baseline: vehicle).
For ABL1 (Homo sapiens, UniProt P00519, F317I); competitive binding scan: remaining binding read 83%.
It gave 100% for remaining binding (AKT2 (Homo sapiens, UniProt P31751); competitive binding panel; baseline: vehicle).
It gave 100% for remaining binding (BRSK2 (Homo sapiens, UniProt Q8IWQ3); competitive binding panel; baseline: vehicle).

Series 2 — read-out: cell-free assay; method: competition with immobilised ligand; concentration: 1 µM
Structure (SMILES): CN([C@@H]1CCc2c(CC(=O)O)c3cc(S(C)(=O)=O)ccc3n2C1)S(=O)(=O)c1ccc(F)cc1
The remaining binding was 76% (FLT3 (Homo sapiens, UniProt P36888, D835H)).
EGFR (Homo sapiens, UniProt P00533, del747-750/T751S) — remaining binding: 100%.
It gave 75% for remaining binding (MAP2K4 (Homo sapiens, UniProt P45985)).
The remaining binding was 100% (MYLK4 (Homo sapiens, UniProt Q86YV6)).
HCK (Homo sapiens, UniProt P08631) — remaining binding: 87%.
It gave 85% for remaining binding (GSK3B (Homo sapiens, UniProt P49841)).
It gave 88% for remaining binding (PIK3CA (Homo sapiens, UniProt P42336, E542K)).
The remaining binding was 100% (WEE1 (Homo sapiens, UniProt P30291)).
STK11 (Homo sapiens, UniProt Q15831) — remaining binding: 69%.
LIM domain kinase 2 (LIMK2, Homo sapiens, UniProt P53671) — remaining binding: 100%.
STK36 (Homo sapiens, UniProt Q9NRP7) — remaining binding: 98%.
For Ribosomal protein S6 kinase alpha-6, C-terminal kinase domain (RPS6KA6, Homo sapiens, UniProt Q9UK32): remaining binding read 100%.
MAP3K19 (Homo sapiens, UniProt Q56UN5) — remaining binding: 79%.
For AKT2 (Homo sapiens, UniProt P31751): remaining binding read 92%.
It gave 94% for remaining binding (CSNK1A1L (Homo sapiens, UniProt Q8N752)).
For MAP3K4 (Homo sapiens, UniProt Q9Y6R4): remaining binding read 79%.
It gave 100% for remaining binding (STK10 (Homo sapiens, UniProt O94804)).

Series 3 — read-out: enzyme activity; action: inhibitor; concentration: 0.5 µM; baseline: control
Target: Serine/threonine-protein kinase pim-3 (PIM3, Homo sapiens, UniProt Q86V86)
`COc1cc2ncc(-c3ccccc3)nc2cc1OC` gave a remaining activity of 87.4%.
The remaining activity of `O=C(Nc1ccc(Cl)cc1)c1ccccc1NCc1ccncc1` is reported as 93%.
For `CC(C)[C@H](CO)Nc1nc(Nc2cccc(Cl)c2)c2ncn(C(C)C)c2n1`, the remaining activity was 84.9%.
For `COc1ccc(Cl)cc1NC(=O)Nc1cc(C)nc2ccccc12`, the remaining activity was 97.6%.
`CCC(=O)Nc1ccc2ncnc(Nc3cccc(Br)c3)c2c1` has a remaining activity of 76.6%.
`COc1cc2ncnc(N3CCN(C(=O)Nc4ccc(Oc5ccccc5)cc4)CC3)c2cc1OC` has a remaining activity of 94.4%.
`O=C1NC(=O)/C(=C/c2ccc3nccnc3c2)S1` gave a remaining activity of 67.3%.
The remaining activity of `O=c1cc(N2CCOCC2)oc2c1ccc1ccccc12` is reported as 95.4%.
With `COc1ccc(-c2cnc3c(-c4ccsc4)cnn3c2)cc1` the remaining activity was 100%.
With `CC(C)c1nn(-c2c(Cl)cccc2Cl)c2nc(Cc3ccc(OCCO)cc3)[nH]c(=O)c12` the remaining activity was 105%.
The remaining activity of `CC(=O)O/N=C1/C(c2c(O)[nH]c3cc(Br)ccc23)=Nc2ccccc21` is reported as 54.2%.
With `Cn1cnc2cc3c(Nc4cccc(Br)c4)ncnc3cc21` the remaining activity was 104%.
The remaining activity of `COc1cc2ncnc(Nc3ccc(OCc4ccccc4)cc3)c2cc1OC` is reported as 119%.
The remaining activity of `Cn1cc(/C=C2\C(=O)Nc3ccc(S(N)(=O)=O)cc32)c2ccccc21` is reported as 91.6%.
`CN(C)CCCn1cc(C2=C(c3c[nH]c4ccccc34)C(=O)NC2=O)c2ccccc21` has a remaining activity of 1.9%.
The remaining activity of `CS(=O)(=O)CCNCc1ccc(-c2ccc3ncnc(Nc4ccc(OCc5cccc(F)c5)c(Cl)c4)c3c2)o1` is reported as 93.7%.
The remaining activity of `C[S+]([O-])c1ccc(-c2nc(-c3ccncc3)c(-c3ccc(F)cc3)[nH]2)cc1` (stereo not drawn) is reported as 98.1%.
With `CCOc1cc2ncnc(Nc3cccc(Br)c3)c2cc1OCC` the remaining activity was 105%.
`Cc1nc(Nc2ncc(C(=O)Nc3c(C)cccc3Cl)s2)cc(N2CCN(CCO)CC2)n1` gave a remaining activity of 96.3%.
The remaining activity of `CCN1/C(=C/C(C)=O)Sc2ccc(OC)cc21` is reported as 47.4%.
`Nc1[nH]nc2nnc(-c3c(-c4ccccc4)nn4ccccc34)cc12` has a remaining activity of 100%.
`Cc1ccc(NC(=O)c2ccc(CN3CCN(C)CC3)cc2)cc1Nc1nccc(-c2cccnc2)n1` gave a remaining activity of 95.7%.

Series 4 — read-out: RNA clamping; method: fluorescence polarization; concentration: concentration not given; notes: mean of two replicates; with: FAM-labelled poly r(AG)8 RNA
Target: Eukaryotic initiation factor 4A-III (Homo sapiens, UniProt P38919)
UniProt P38919, sequence (whole entry, looked up): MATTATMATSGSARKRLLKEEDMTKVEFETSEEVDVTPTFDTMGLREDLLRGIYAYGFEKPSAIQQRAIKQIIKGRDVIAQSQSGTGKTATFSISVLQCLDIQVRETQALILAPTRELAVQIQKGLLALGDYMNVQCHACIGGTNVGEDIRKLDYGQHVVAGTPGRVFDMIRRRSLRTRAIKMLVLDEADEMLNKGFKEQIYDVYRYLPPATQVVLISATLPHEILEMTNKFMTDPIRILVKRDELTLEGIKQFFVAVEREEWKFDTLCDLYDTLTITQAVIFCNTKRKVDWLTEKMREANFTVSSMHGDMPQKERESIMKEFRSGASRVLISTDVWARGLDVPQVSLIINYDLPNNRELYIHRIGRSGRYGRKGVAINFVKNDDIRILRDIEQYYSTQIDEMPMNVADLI
Under “fluorescence polarization change”, `COC(=O)[C@H]1C(=O)[C@@]2(OC)c3c(OC)cc(OC)cc3O[C@@]2(c2ccc(OC)cc2)[C@@H]1c1ccccc1` is recorded as 2.1 mP.
`C#CCNC(=O)/C=C/Cn1c(-c2ccccc2)nc2c(c1=O)[C@@H](c1ccccc1)[C@]1(c3ccc(OC)cc3)Oc3cc(OC)cc(OC)c3[C@]21O`: “fluorescence polarization change” 6.2 mP.
Under “fluorescence polarization change”, `CONC(=O)[C@H]1[C@@H](O)[C@@]2(O)c3c(OC)cc(O)cc3O[C@@]2(c2ccc(Br)cc2)[C@@H]1c1ccccc1` is recorded as 54.7 mP.
For `COC(=O)[C@H]1C(=O)[C@@]2(NCc3ccccc3)c3c(OC)cc(OC)cc3O[C@@]2(c2ccc(OC)cc2)[C@@H]1c1ccccc1`, “fluorescence polarization change” read 2.6 mP.
Under “fluorescence polarization change”, `COc1cc(OC)c2c(c1)O[C@@]1(c3ccc(Br)cc3)[C@H](c3ccccc3)[C@@H](C(=O)N(C)OC)[C@@H](O)[C@@]21O` is recorded as 52 mP.
Under “fluorescence polarization change”, `COCCN[C@@]12/C(=N/O)C[C@@H](c3ccccc3)[C@]1(c1ccc(OC)cc1)Oc1cc(OC)cc(OC)c12` is recorded as 4.1 mP.
`COC(=O)[C@H]1C(=O)[C@@]2(NCCN3CCOCC3)c3c(OC)cc(OC)cc3O[C@@]2(c2ccc(OC)cc2)[C@@H]1c1ccccc1` — result for “fluorescence polarization change”: 10.4 mP.
Under “fluorescence polarization change”, `COC(=O)[C@@H]1[C@@H](c2ccccc2)[C@]2(c3ccc(OC)cc3)Oc3cc(OC)cc(OC)c3[C@@]23NC(c2ccc(OC)cc2)=N[C@@]13O` is recorded as 8.4 mP.

Some of these lines once more (series 3):
With `Cn1cnc2cc3c(Nc4cccc(Br)c4)ncnc3cc21` the remaining activity was 104%.
The remaining activity of `COc1cc2ncnc(Nc3ccc(OCc4ccccc4)cc3)c2cc1OC` is reported as 119%.
The remaining activity of `Cn1cc(/C=C2\C(=O)Nc3ccc(S(N)(=O)=O)cc32)c2ccccc21` is reported as 91.6%.
`CN(C)CCCn1cc(C2=C(c3c[nH]c4ccccc34)C(=O)NC2=O)c2ccccc21` has a remaining activity of 1.9%.
The remaining activity of `CS(=O)(=O)CCNCc1ccc(-c2ccc3ncnc(Nc4ccc(OCc5cccc(F)c5)c(Cl)c4)c3c2)o1` is reported as 93.7%.
The remaining activity of `C[S+]([O-])c1ccc(-c2nc(-c3ccncc3)c(-c3ccc(F)cc3)[nH]2)cc1` (stereo not drawn) is reported as 98.1%.
With `CCOc1cc2ncnc(Nc3cccc(Br)c3)c2cc1OCC` the remaining activity was 105%.
`Cc1nc(Nc2ncc(C(=O)Nc3c(C)cccc3Cl)s2)cc(N2CCN(CCO)CC2)n1` gave a remaining activity of 96.3%.
